Measurements of several laboratories.
Each numbered part is a random draw from the data of one study; scales do not carry over between parts.

Sample 1
Target: RNA binding protein fox-1 homolog 2, RRM domain, GST-SBP tag (RBFOX2, Homo sapiens, UniProt O43251-10, residues 100-194)
Method: RNA Bind-n-Seq
Molecule type: RNA
Sample: in vitro
Concentration: 365 nM
Setting: natural RNA segment, single round, ends assumed
Baseline: no-protein control
Direction: higher = stronger binding
Construct (chain): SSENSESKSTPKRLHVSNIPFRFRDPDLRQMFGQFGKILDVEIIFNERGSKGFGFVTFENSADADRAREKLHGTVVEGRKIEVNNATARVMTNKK
For `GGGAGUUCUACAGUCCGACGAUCCUCCCUCGUGGGCCAGUGAAAAUAGACUGUAGGUCCUCAGAGCCUUCAGAGAUGAUCCAGCCCAAACCCCAUUUUGCAGAGAGGAAAACUGAGGCCUAGAAGGGAGGAGUUGGAAUUCUCGGGUGCCAA`, “RBNS enrichment (R)” read 0.426.
For `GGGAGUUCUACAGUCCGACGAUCACCAUUGCAAAGAACGGGAGAAAUAGUCUAAAAAGGUGGGGCUUUGGCAUUCCUACCCUACAUCCUAUUUACCAGCAUACAUCAAACUGCUGCUGAUUUGAUUCCUCAAGUGGAAUUCUCGGGUGCCAA`, “RBNS enrichment (R)” read 0.626.
For `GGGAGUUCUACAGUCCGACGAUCUUUGUACUGUAUUCUUACUGUGUGACUAGAUGCGUGAGCGCUUUACAUUAGAAGGAACCUGGUUAGAGCUCGCUCCUCCUGUCUUUGUGUGGCAUUUGUGUUCCAUUACCUGGAAUUCUCGGGUGCCAA`, “RBNS enrichment (R)” read 0.544.
`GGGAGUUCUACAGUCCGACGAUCGUCACUGGAUGCAGAAGUACCCAUUCAUCACACCUGCCCCAUAGCCCCCACUCUGCUGUACUGAUAGGAUUUAGUUGUGUUUUAGGACAUUGCAAAUCUUCUAGAAGUUCUGGAAUUCUCGGGUGCCAA`: “RBNS enrichment (R)” 0.727.
Under “RBNS enrichment (R)”, `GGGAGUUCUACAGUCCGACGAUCUCAGACAAGUCUGGGAUUAGAGCCUCAAGGACAUUGUGUGAUUGCCUCACAUUUGCAGGUAAUAUCAAGCAGCAAACUAAAUUCUGAGAAAUAAACGAGUCUAUUACUGUUGGAAUUCUCGGGUGCCAA` is recorded as 0.306.
Under “RBNS enrichment (R)”, `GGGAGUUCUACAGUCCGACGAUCGAGAGGCAGAAGCUGAAGGUUCUAUAUCCAGUGUGUUUUAUGUCCAGAAUGUAAGAGAGUUGUCUAAGCAGCAGCUGAGAGAGAGCGGAGCCUAUUUCUAGCCACUCCUGUGGAAUUCUCGGGUGCCAA` is recorded as 0.943.
For `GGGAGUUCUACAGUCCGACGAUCAGCCCUCGUCCUCUUUCUGUGAUCCGAUUGAGGAUUUUUUCCUCCUUCAAGUUAAUUUAAACAACUGCAGAGAUGUGUUUGUAGAGCACUUAGAGGUCUGGGGCUGGAAGUGGAAUUCUCGGGUGCCAA`, “RBNS enrichment (R)” read 0.49.
Under “RBNS enrichment (R)”, `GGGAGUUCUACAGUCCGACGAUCUUACUACAAAUGCUUAUUCUCAUUGACUUAUUUCUUUCAUGGUAACUUUCGUUUUGGAGUGUUCAUUUUCUGAACUUGACCCUCACAUUGUAGGGGUGCAGUUUGUCCAAUGGAAUUCUCGGGUGCCAA` is recorded as 0.274.

Sample 2
Target: Histone acetyltransferase KAT6A, winged helix 1, GST fusion (KAT6A, Homo sapiens, UniProt Q92794, residues 1-85)
Method: protein binding microarray
Molecule type: double-stranded DNA, one strand shown
Sample: in vitro
Concentration: not given
Setting: 8-mer, flanks averaged, mean of 2 arrays, mostly near background
Baseline: not given
Direction: higher = stronger binding
Construct (chain): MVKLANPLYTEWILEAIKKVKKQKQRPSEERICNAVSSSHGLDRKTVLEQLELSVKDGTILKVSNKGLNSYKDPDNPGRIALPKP
With `CGTTTGAG` the E-score was -0.101.
The E-score of `GGTATAAA` is reported as -0.0152.
`ACTATCTC` gave an E-score of -0.0657.
`CGCCCCGC` gave an E-score of 0.367.
With `AAGAGAGT` the E-score was -0.0815.
With `CGTTTTAA` the E-score was -0.125.
For `CGACGTTA`, the E-score was -0.0108.
The E-score of `GCGCCTCC` is reported as 0.261.
With `CACCTGTA` the E-score was -0.153.
`CCAGGACA` gave an E-score of 0.0228.
`AAAAAGCT` has an E-score of 0.0284.
For `CCTGCGCG`, the E-score was 0.359.
`AACTCGGC` has an E-score of 0.108.
With `GTTCGCCA` the E-score was -0.108.
`ACAGGGCC` gave an E-score of 0.0956.
For `CTATATAC`, the E-score was -0.0166.
The E-score of `ACAGTACA` is reported as -0.111.

Sample 3
Target: Interferon regulatory factor 7, full length, phosphomimetic (IRF7, Homo sapiens, UniProt Q92985, residues 1-503, S471D/S472D/S475D/S476D/S477D/S483D/S484D/S487D)
Chain of UniProt Q92985 (whole entry, unmodified, looked up): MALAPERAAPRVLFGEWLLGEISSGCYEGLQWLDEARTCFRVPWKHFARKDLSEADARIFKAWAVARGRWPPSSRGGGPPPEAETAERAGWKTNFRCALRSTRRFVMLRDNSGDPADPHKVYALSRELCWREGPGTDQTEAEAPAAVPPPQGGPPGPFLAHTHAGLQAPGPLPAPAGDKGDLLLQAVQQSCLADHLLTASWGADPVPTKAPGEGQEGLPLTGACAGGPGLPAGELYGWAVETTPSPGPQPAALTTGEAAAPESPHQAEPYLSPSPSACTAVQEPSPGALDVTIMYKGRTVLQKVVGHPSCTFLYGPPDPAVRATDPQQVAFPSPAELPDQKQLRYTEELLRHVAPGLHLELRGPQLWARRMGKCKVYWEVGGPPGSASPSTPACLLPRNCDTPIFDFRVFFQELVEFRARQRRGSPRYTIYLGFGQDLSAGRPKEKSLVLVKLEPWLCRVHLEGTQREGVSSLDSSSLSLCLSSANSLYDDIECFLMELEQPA
Method: protein-binding microarray
Molecule type: double-stranded DNA, one strand shown
Sample: in vitro
Concentration: 2200 nM top
Setting: 60-bp whole probe
Added: salmon DNA 0.4 mg/ml
Baseline: random background probes
Direction: higher = stronger binding
Shared flanks, not repeated: GCCTAGCAC … GTCTTGATTCGCTTGACGCTGCTG
`TTAGATATCGGGTATCGGTTAGTGCTA`: “fitted relative affinity” 0.51 z-score.
`CTAGGTTTCGACACTGGGTTAGTGCTA`: “fitted relative affinity” 2.23 z-score.
`GACGGACTGGGGTATAGGGACGTGCTA`: “fitted relative affinity” -0.857 z-score.
`GACCGTTCCCTTTTCCTGACGTGCTAG`: “fitted relative affinity” 2.54 z-score.
`TCATTTTTGGTTTCTGGACTGTGCTAG` — result for “fitted relative affinity”: 5.67 z-score.
Under “fitted relative affinity”, `GACGGTCTCGGTCTGGGGACGTGCTAG` is recorded as -0.197 z-score.
`GCCGATTTCGGGTTTCGAGACGTGCTA` — result for “fitted relative affinity”: 6.22 z-score.
`TCAGGACTGGGTCTCGGTTAGTGCTAG` — result for “fitted relative affinity”: -0.296 z-score.
`GACGGACTGCGGTTTCGGGACGTGCTA` — result for “fitted relative affinity”: 1.97 z-score.
`TCATGGGTCTTGTCTGGAACTGTGCTA` — result for “fitted relative affinity”: 0.00528 z-score.
`TTAGATTTCAGTAGCGATTAGTGCTAG` — result for “fitted relative affinity”: -0.371 z-score.
`TCACCTATGTCATTTACACTGTGCTAG`: “fitted relative affinity” 1.81 z-score.
Under “fitted relative affinity”, `TCATCTTTCCCTGCCCCATGGTGCTAG` is recorded as 1.35 z-score.
For `TCAGGTTTGTACACCGCACTGTGCTAG`, “fitted relative affinity” read 1.11 z-score.
`TTTGGACTGCTTATCCTTTAGTGCTAG` — result for “fitted relative affinity”: 0.912 z-score.
For `TTTGGTTTCGGGTTTCGGTTAGTGCTA`, “fitted relative affinity” read 11.9 z-score.
For `TGAGGTATCGACTTTCGGTTAGTGCTA`, “fitted relative affinity” read 5.56 z-score.
Under “fitted relative affinity”, `GACGGTTTCGGGTTTCCGGACGTGCTA` is recorded as 9.03 z-score.
Under “fitted relative affinity”, `TTAGAACAGGGGTTTCGATTAGTGCTA` is recorded as 2.34 z-score.

Sample 4
Target: RING finger protein unkempt homolog, zinc fingers 1-6, GST-SBP tag (UNK, Homo sapiens, UniProt Q9C0B0, residues 30-357)
Method: RNA Bind-n-Seq
Molecule type: RNA
Sample: in vitro
Concentration: not given
Setting: RNA with constant flanks, human and mouse sites, ends assumed
Baseline: input RNA pool
Direction: higher = stronger binding
Residues (chain): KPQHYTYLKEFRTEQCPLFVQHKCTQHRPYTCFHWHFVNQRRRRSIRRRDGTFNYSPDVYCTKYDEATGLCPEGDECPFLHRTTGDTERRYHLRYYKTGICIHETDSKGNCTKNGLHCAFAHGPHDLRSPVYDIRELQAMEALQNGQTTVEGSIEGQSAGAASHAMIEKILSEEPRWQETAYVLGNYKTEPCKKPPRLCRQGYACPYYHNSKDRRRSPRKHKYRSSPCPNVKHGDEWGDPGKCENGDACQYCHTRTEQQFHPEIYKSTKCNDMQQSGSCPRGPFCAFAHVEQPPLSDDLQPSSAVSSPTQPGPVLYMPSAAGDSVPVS
`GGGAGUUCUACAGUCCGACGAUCUCUACCAUCCCCUCCCCUCCCCACCCCAUCCAUUAAUAUUAUUCUUUUGAAGAUUCUUCGUUGUCAAGCCGCCAAAGUGGAGAGUGCGAUUGCAGAAGGGGGUGCUUCUCGUUUCAGUGCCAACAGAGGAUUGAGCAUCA` gave a bound/input enrichment of 0.948 ratio.
`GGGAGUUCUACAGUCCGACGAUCCUUGUGCACGCCCCACCUGUGCAUCUGGGAAUCCCAUCCCUGCAUUCAUUCAUCAAGAAGCACAGUCCUCAGGUUGGCCCUGGCUUAGAGAAAGAGGACAAGGCCGACUCAGACCUUGAGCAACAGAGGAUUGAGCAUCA` has a bound/input enrichment of 0.332 ratio.
The bound/input enrichment of `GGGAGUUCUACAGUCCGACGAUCAUGGAACAUGGUGUAAAACCUCACAGUAAACAUCUUACAGAGUAUUUUGCCUUCCUUUACGAAUUUGCAAAAAUGGGUGAAGAAGAGAGCCAAUUUUUGCUUUCAUUGCAAGCUAUAUCUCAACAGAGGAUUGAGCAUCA` is reported as 0.129 ratio.
With `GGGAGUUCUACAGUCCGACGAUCAAAGAACAUUGGAAUCCGGCUAUUGUGGCGUUGGUGUACAAUGUGUUGAAGGCAUUUAUGGAAAUGAACAGCACCAUGUUUGACGAGCUGACAGCCACAUACAAGUCAGAUCGUCAGCGUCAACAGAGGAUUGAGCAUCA` the bound/input enrichment was 0.0909 ratio.
With `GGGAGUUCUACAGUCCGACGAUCAUCCCCAAUGUUCUGCGCCGCAUUCGGGAGUCUUUCUUUCGCGUGGUGCCGCAGUUUGUAGUGUUUUAUCUUAUCUACACAUGGGGGACUGAAGAGUUCGAGAGAUCCAAGAGGAAGAAUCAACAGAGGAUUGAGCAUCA` the bound/input enrichment was 0.218 ratio.
The bound/input enrichment of `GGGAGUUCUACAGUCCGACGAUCUAACACGUUGAAUGCUGCCAGCUUUUUCUUUUUCUUUCUUUUUUUUUUUUUUUUUUCCUUCCAGGGCCGUUUUCUGAUAUAUGUUGGGUAUCAUAGAGUGAAUCUCAGAACAGGAAGCGGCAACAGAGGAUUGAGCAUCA` is reported as 8.53 ratio.
For `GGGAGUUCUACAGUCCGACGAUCCUUAAUUCCGGAGAAAUUUAGGAAGAUGUCUUGUUAACCCUUGAUGUCUAGAGAUUGGGGGCUGGUGAAGGGGGUUUGGCUUCAAUGACUGGAUAAUGAUAUCUUUCAUGAGAGAGAUUACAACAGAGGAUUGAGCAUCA`, the bound/input enrichment was 0.863 ratio.
`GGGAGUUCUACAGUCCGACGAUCCUCUCCCCUGAUAUCUGGAUGUAUAUUCUGCUGGCUUACUUGGGUGUCAGUUGUGUGCUCUUUGUCAUAGCCAGGUUUAGUCCUUAUGAGUGGUAUAAUCCACACCCUUGCAACCCUGACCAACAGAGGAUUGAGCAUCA` gave a bound/input enrichment of 1.22 ratio.

A few entries again (sample 2):
With `CGTTTTAA` the E-score was -0.125.
For `CGACGTTA`, the E-score was -0.0108.
The E-score of `GCGCCTCC` is reported as 0.261.
With `CACCTGTA` the E-score was -0.153.
`CCAGGACA` gave an E-score of 0.0228.
